Measured values from different studies.
Each numbered part is a random draw from the data of one study; scales do not carry over between parts.

Sample 1 — method: RNAcompete; molecule type: RNA; medium: in vitro; tested at: 20 nM; notes: 7-mer, probes averaged, single round; reference: mean of 7-mers; direction: higher = stronger binding; quantity: 7-mer Z-score
Target: PABPC1L2, full length, GST fusion (mouse, UniProt A0ABA7IW68)
Target sequence (chain): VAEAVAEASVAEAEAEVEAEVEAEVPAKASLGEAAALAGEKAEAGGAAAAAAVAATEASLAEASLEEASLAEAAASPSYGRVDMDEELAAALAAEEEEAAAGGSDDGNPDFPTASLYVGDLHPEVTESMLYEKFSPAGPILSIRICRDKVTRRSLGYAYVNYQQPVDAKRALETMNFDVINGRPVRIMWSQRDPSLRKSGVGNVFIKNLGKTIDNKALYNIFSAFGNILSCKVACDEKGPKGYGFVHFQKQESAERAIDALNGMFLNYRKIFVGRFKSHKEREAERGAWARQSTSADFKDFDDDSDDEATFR
Sequence = AGCGGAU; value = -0.0591
Sequence = GAUCGAG; value = -0.128
Sequence = GGGGAAA; value = 0.729
Sequence = UAGUAAC; value = -0.141
Sequence = AGUAGAC; value = 0.242

Sample 2 — method: aptamer microarray, sandwich; molecule type: DNA with 2'F-ANA; medium: in vitro; tested at: 200 nM; with: Cy3 exosite-II aptamer, 400 nM; direction: higher = stronger binding; quantity: mean fluorescence intensity; sequence: GGTTGGTGTGGTTGG
Target: Prothrombin, mature alpha-thrombin (F2, Homo sapiens, UniProt P00734)
Notes: whole 15-mer aptamer, many near background
Modification = 2'F-ANA at 1 3 4 5 6 7 10 11 13 15; value = 44.7 a.u.
Modification = 2'F-ANA at 2 5 7 8 10 13 14; value = 47.2 a.u.
Modification = 2'F-ANA at 2 3 6 7 9 10 11 14; value = 234 a.u.
Modification = 2'F-ANA at 3 4 5 8 9 11 14 15; value = 49.7 a.u.
Modification = 2'F-ANA at 1 3 6 9 13 14 15; value = 71.3 a.u.
Modification = 2'F-ANA at 3 4 5 7 10 11 13 14; value = 68.9 a.u.

Sample 3 — method: protein-binding microarray; molecule type: double-stranded DNA, one strand shown; medium: in vitro; tested at: 940 nM top; notes: 60-bp whole probe; with: salmon DNA 0.4 mg/ml; reference: random background probes; direction: higher = stronger binding; quantity: fitted relative affinity; shared flanks, not repeated: GCCTAGCAC … GTCTTGATTCGCTTGACGCTGCTG
Target: Interferon regulatory factor 5, full length, phosphomimetic (IRF5, Homo sapiens, UniProt Q13568-2, residues 1-514, S451D/S453D/S456D/S462D)
Sequence = GACGAACGGAGTTTCGAGACGTGCTAG; value = 3.6 z-score
Sequence = TCATGTATGGGCATTTTTACTGTGCTA; value = -0.245 z-score
Sequence = TTAGATCTCGGGTATCGATTAGTGCTA; value = 3.2 z-score
Sequence = TCAAACATCATTGTCATACTGTGCTAG; value = -0.0822 z-score
Sequence = GTAGTAATCTTAAGGCTGTCGTGCTAG; value = -0.474 z-score

Other studies, line by line
Molecule = PhoQ, residues 284 288 289 292 302 303 ASVMEA; target = PhoP, residues 12 14 15 18 19 SEGLL (Escherichia coli, UniProt P23836); test = Sort-seq, refers to: YFP reporter; test system = E. coli; setting = PhoQ-PhoP variant library, with: 10 µM Mg2+; scale = reference: high Mg2+ state, higher = stronger signaling; quantity = fold induction; value = 5.38

Some of these lines once more (sample 3):
Sequence = TCAAACATCATTGTCATACTGTGCTAG; value = -0.0822 z-score
Sequence = GTAGTAATCTTAAGGCTGTCGTGCTAG; value = -0.474 z-score
